Published values pooled from the literature.
Parts stem from different laboratories: compare values within a part only.
UniProt P62253, sequence (whole entry, looked up): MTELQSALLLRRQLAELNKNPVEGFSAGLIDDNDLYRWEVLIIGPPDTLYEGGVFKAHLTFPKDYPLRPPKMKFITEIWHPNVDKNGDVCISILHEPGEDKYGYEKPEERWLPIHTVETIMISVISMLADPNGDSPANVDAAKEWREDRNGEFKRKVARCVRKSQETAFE
UniProt Q9NPD8, sequence (whole entry, looked up): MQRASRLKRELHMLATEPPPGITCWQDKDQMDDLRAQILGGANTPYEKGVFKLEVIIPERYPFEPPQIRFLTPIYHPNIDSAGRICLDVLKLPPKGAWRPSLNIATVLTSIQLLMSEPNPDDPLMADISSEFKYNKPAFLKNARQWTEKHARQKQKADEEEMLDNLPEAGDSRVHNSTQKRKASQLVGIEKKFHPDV
UniProt P62837, sequence (whole entry, looked up): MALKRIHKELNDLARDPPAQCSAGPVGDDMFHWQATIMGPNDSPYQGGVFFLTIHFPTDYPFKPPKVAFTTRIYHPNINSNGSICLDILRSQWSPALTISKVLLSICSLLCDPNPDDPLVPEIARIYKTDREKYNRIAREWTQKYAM
UniProt Q9Y2X8, sequence (whole entry, looked up): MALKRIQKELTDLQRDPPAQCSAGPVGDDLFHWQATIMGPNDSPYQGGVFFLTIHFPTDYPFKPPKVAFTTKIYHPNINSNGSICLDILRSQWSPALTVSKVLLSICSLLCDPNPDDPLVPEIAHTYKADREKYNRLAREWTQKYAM
UniProt P68036, sequence (whole entry, looked up): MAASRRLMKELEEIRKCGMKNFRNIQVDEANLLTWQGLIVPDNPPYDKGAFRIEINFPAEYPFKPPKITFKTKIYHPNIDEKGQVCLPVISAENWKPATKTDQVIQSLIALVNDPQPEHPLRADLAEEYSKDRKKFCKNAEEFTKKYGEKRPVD

Set 1
Target: Sal-like protein 4, full length isoform B (SALL4, Homo sapiens, UniProt Q9UJQ4-2, residues 1-616)
Technique: universal PBM
Molecule type: double-stranded DNA, one strand shown
Medium: in vitro
Tested at: not given
Notes: 8-mer, flanks averaged, mean of replicates
Reading: higher = stronger binding
Endpoint: E-score
Residues (chain): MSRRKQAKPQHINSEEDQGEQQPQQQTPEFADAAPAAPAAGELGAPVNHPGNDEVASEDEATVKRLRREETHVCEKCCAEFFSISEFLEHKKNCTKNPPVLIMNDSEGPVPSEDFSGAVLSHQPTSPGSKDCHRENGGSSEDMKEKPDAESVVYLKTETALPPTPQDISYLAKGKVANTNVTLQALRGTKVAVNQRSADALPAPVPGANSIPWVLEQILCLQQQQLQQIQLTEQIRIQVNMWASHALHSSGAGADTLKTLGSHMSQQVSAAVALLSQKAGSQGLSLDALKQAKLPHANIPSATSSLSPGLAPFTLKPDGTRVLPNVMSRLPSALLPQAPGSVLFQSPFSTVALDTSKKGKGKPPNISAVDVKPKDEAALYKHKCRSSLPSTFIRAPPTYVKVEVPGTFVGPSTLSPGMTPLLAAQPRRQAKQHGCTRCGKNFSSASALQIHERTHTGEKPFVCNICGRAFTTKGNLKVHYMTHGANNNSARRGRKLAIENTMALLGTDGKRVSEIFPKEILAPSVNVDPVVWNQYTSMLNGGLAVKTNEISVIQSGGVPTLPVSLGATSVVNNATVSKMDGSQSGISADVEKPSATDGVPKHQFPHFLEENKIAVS
CGGCCCTC: -0.322
GGCGCAAC: -0.273
ATCCGGCG: -0.305
CTATTAGC: 0.188
AAGTTCTA: 0.132
GAAAGACA: 0.11
ATGGAAGG: 0.0592
CTAATGAC: 0.14
ATAGGCTA: 0.17
AGTGCCTG: -0.105
GACCTTGA: 0.112
CGCCGTCC: -0.183
GAAATAGA: 0.22
CTTAGTAC: 0.0725
AAAGGATC: 0.0229
AAACGACT: -0.00797
CTCCACTA: -0.159

Set 2
Target: Ras GTPase-activating protein-binding protein 1, RRM domain (G3BP1, Homo sapiens, UniProt Q13283)
UniProt Q13283, sequence (whole entry, looked up): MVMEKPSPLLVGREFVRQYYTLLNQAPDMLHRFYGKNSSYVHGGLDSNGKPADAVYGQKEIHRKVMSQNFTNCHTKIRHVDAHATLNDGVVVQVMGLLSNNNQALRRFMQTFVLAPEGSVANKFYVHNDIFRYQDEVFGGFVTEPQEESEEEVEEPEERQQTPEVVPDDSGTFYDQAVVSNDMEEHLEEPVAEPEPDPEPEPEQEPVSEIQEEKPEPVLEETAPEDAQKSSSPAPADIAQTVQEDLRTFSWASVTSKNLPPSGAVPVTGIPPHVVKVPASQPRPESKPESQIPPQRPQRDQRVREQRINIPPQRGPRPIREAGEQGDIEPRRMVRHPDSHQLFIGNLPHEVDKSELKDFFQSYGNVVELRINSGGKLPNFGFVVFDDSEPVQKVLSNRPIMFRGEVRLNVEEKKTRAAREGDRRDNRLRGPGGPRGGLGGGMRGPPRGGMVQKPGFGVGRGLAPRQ
Technique: RNA Bind-n-Seq
Molecule type: RNA
Medium: in vitro
Tested at: 1 µM
Notes: whole 134-nt RNA, ends assumed
Added: 150 mM KCl
Baseline: input library
Reading: higher = stronger binding
Endpoint: log2 enrichment
Shared flanks, not repeated: GGGAGUUCUACAGUCCGACGAUC … UGGAAUUCUCGGGUGUCAAGG
ACAAAGCAGGUGGGCAUCUUUGGGAAGUGGGGCAAGGGGGGGAUAGGGAGGGGGGUAACACUUUGGGAACAGGUGGUCCCAGGUCGUUUC: -0.411
UAACUUUAGAGGAGGAUCUGAUGGAUAUGGCAGUGGACGUGGAUUUGGGGAUGACUAUAAUGGGUAUGGAGGAGGACCUGGAGGUGGCAA: -0.142
ACCAUGCACGUGGGCAUCUUUGGGAAGUGGGGCAAGGGGGGGAUAGGGAGGGGGGUAACACUUUGGGAACAGGUGGUCCCAGGUCGUUUC: -0.559
UGGAUUUUCAAGACACGAAUGCUCGGAGUCUGGCAGAAAGGAAGAGAGAAGAGGAGAAGCAGAAGCACUUGGAUAAAAUUUAUCAAGAAA: -0.18
UUCCUCAAGUCCUGUGCUACACAUCGUAUGUACCGAAUCGGGAGGAGGAGGAAAGUAUUAUGUUACGCCGUUCGGAUCUGCACUUCCAGC: -0.24
UACCCUCGUGCCCCUGUUUUUCCUGGCCGUGGUAGUUACUCAAACAGAGGGAACUACAACAGAGGUGGAAUGCCCAACAGAGGGAACUAC: -0.245
UCCUCAAGUCCUGUGCUACACAUCGUAUGUACCGAAUCGGGUGGUGGGUGGGAAAGUAUUAUGUUACGCCGUUCGGAUCUGCACUUCCAG: 0.162
CAAGUCCUGUGCUACACAUCGUAUGUACCGAAUCGGAAAAAAAGGUGGAAAAAGGAAAGUAUUAUGUUACGCCGUUCGGAUCUGCACUUC: -0.123
CCUGUGCUACACAUCGUAUGUACCGAAUCGGGUUUUUGGGUUUUUUUGGGAAAAAAAGGGAAAGUAUUAUGUUACGCCGUUCGGAUCUGC: -0.209
UCAAGUCCUGUGCUACACAUCGUAUGUACCGAAUCGGUUUUUGGAAAAAGGAGGAAAGUAUUAUGUUACGCCGUUCGGAUCUGCACUUCC: -0.117
GCAGGAAGUAAAAACAAAUGGAAAUGCUUCGGAUAGUUGCAGGGGUGGGGGUUGCUAAGGAAAGGGUGGGAUGGGAGUGGGUAAAGAGUU: 0.573
GUCCUGUGCUACACAUCGUAUGUACCGAAUCGGGUUUUUUUGGGAAAGGGUUUUUGGGAAAGUAUUAUGUUACGCCGUUCGGAUCUGCAC: 0.00699
CCUGUGCUACACAUCGUAUGUACCGAAUCGGGCCCCCCGGGGCCCCCCGGGGCCCCCCGGGAAAGUAUUAUGUUACGCCGUUCGGAUCUG: -0.653

Set 3
Molecule: B1 (DTX2 RING domain)
Technique: yeast two-hybrid
Medium: yeast
Notes: mostly zero background
Baseline: not given
Reading: higher = stronger interaction
Endpoint: lacZ reporter activity
B1: DTX2 RING domain (UniProt Q86UW9); chain EELKVPPDEDCIICMEKLSTASGYSDVTDSKAIGSLAVGHLTKCSHAFHLLCLLAMYCNGNKDGSLQCPSCKTIYGEKTGTQ
UBE2G1 UBC core domain (UniProt P62253): 0
UBE2L3 UBC core domain (UniProt P68036): 0
UBE2D2 UBC core domain (UniProt P62837): 0
UBE2T UBC core domain (UniProt Q9NPD8): 0
UBE2D4 UBC core domain (UniProt Q9Y2X8): 0

Set 4
Target: RNA binding protein fox-1 homolog 2, RRM domain, GST-SBP tag (RBFOX2, Homo sapiens, UniProt O43251-10, residues 100-194)
Technique: RNA Bind-n-Seq
Molecule type: RNA
Medium: in vitro
Tested at: 365 nM
Notes: natural RNA segment, single round, ends assumed
Baseline: no-protein control
Reading: higher = stronger binding
Endpoint: RBNS enrichment (R)
Shared flanks, not repeated: GGGAGUUCUACAGUCCGACGAUC … UGGAAUUCUCGGGUGCCAA
Target sequence (chain): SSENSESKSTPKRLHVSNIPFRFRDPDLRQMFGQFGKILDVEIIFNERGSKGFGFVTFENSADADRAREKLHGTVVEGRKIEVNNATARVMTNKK
CACCGCACUAUUCUUGCCAUAGAGAGAGCCCAGGAGCCAACGCUGAAUCAGGUGCCCGGAGUCUUUGGAGCUCUGAAACUCUCGGCUAUGCAAGACCCCGGGUCCUUGCA: 2.08
UAGUGGCUAGGGGUAUGUGGGACUGCGGCACUGGACUGGGUGCUUCAUGGUGGGCCCUGUGCUCUGUUAAUGAGUCCCUGGCAUGGAUGGAUGAAUACCUGAGUCACCAG: 2.64
UUAUAUAAUGCACAACUGUUGAUGACUGGCUGUAUAGUUUUUAGUCUCUGUAGCUAAUUUAAUUUGCUCUUCGUGUGGCAGAUCAUUCUGCCAAAAUACUUGAACACUGU: 0.285
GACCAGGAGUUUGGGGAGCUUCAGGACAUUGCUGUGCUUUGGGGAUUCCCUCCACAUGCUGCACGCGCAUCUCGCCCCCAGGGGCACUGCCUGGAAGAUUCAGGAGCCUG: 1.17
AAGUAAAAGUGAAGUUAUUUUGAAGAAAACAACUCAUUUCCAAGGACGACAUGACGACGUGCCUUUUCAUUUUACAUCCUCUGUCCCCUAGGGUAAGUUUUUCAGCAUUA: 0.311
UACAAAUAUUUUGAAAAAUAUGAAUAAACAUGAACUUUUAAAAGCUGCUGAACUACAGCUUAGUGAAAAGUUUCCAGUACCUGUCCUGCAAUCUCUCCUCCUGCAAGGGA: 0.601
UAGUGUAGCUGAAGAGGAAGCUAUACUAUUUUCUGUUUACUGUAUUUUGCUCCCUAUUUUAUGCUUUUUAAAAAUCUUUCACAGUGACUCACUUGAUUGAGCAUAUUGAU: 1.41
UCAUUCACCCAUUAGGUAAACAUUCCCUUUUAAAUGUUUGUUUGUUUUUUGAGACAGGAUCUCACUCUGUUGCCAGGGCUGUAGUGCAGUGGUGUGAUCAUAGCUCACUG: 0.394
CUCUGUCCAGCCACAAGUUUGAGCAGAGGAUGUGGGGACCUCCCACAGGACACUGCUCCAACCCAAAUCAAUGUCCUCUCUAGCUGUGCAUCCCAAACCCACCUCUUGUC: 0.452
GCUACUUGGGAGGCUGAGGCAGGAGAAUCGCCUGAACCCAGGAAGCAGAUGUUGUACCGAGCUGAGAUCAUGCCAUUACACUCCAGCCUGGGCGACAGAACGAGACGCCA: 1.73
CAGGCAUUUCUACCAUAAUAUUGGAAUUGAACACAUUGGCUAAAUAAAGUUGAAAUUUUACUACCCAUGUCACUGCUGCUUUAUUUUGAGCUAAGGGAGCUGAGCUGAAA: 0.272
AAUGGUAAUACUAAAUUUUUUUGUUAAUUUAUUCUCAAAUGCCACUACUGCUAGGUUGGUCCCCUCCCAACUUGCCCCUAUCCUUUUUUUAUUUUUAAGAAAAAAACUUU: 0.815

Set 5
Target: RING finger protein unkempt homolog, zinc fingers 1-6, SBP tag (UNK, Homo sapiens, UniProt Q9C0B0, residues 30-357)
UniProt Q9C0B0, sequence (30-357, looked up): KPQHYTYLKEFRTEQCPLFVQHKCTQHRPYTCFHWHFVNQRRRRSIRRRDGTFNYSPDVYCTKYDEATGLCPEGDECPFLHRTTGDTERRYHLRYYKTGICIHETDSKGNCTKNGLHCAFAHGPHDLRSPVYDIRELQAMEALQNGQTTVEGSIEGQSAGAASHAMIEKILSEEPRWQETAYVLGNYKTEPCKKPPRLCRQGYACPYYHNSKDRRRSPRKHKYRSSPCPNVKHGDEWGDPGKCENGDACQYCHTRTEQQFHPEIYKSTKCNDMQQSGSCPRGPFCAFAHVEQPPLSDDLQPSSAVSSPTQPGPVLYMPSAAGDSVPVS
Technique: RNA Bind-n-Seq
Molecule type: RNA
Medium: in vitro
Tested at: 100 nM
Notes: RNA with constant flanks, vertebrate orthologous sites, ends assumed
Baseline: input RNA pool
Reading: higher = stronger binding
Endpoint: bound/input enrichment
Shared flanks, not repeated: GGGAGUUCUACAGUCCGACGAUC … CAACAGAGGAUUGAGCAUCA
CUGAAGCUUUCUAUUUGGCUGCACUUGCAUAAGCUGCAACAAACAGAAUAAAGAAUUUCAUAUCCUCUGUCUAUCAUUUAGAUGCAUGGUCAAUGAGCUUUGCACACAAUGUGUUUGGAG: 0.344 ratio
AGAAAAUUUUAAUCAAGAAUCUGAAGGUAGAAAUACAGGACCAUGGUUAUCUUCUUCACUUAGAAAUAGAUGCACACCCUUGUUCUCUAGAAGGAGGCGAGAGGGACGAGAUGAAUCUUC: 0.519 ratio
UUCAGGCUCAAUUGACUGUUUCACAGCAUUCCUUACACAGCUAUUUAACAAGUACAAGUGGAGUUAAUUUUCAGGAUACAUGUAGGCACUCAGCAUUAUCCUGCAGUCCAGUUGGAGAUG: 0.352 ratio
UUGUAUGUAGAGAAAAUUUUUCAUUGACCCCCCCAUUGUGAAACUCCAUAGCAGUUUAUUUAGAAUCUUAAUUUUUCUAAUACAAGCUCACUGUAUUAGUCAUUUUAGCCCAUAAUUAAA: 4 ratio
UUGUGCUUAUGCUCUUCUGUAGAAGAGACGAAUUGGGGAAACUGUCUCCUUUUUAUAGACUACUUUGUUUCUAAAUUAUGACCAAAAAAUAUUUUGCUAUUUCUUUCUUUAUAUAUGGAC: 0.972 ratio
UGAGCAUACAUAUACAAUGUGUAUCAAAUGCUGGUUGUAAAAUUAAACCAUCAUCUAGAAUAGAGUUAAUUUGUUAUAAUCAAGCUACAAAUAGGUUUUCUUAAACCAGAGAUGCACUGC: 0.514 ratio

Set 6
Target: Myc proto-oncogene protein, bHLH-zipper, MAX partner unstated (MYC, Homo sapiens, UniProt P01106, residues 368-449)
UniProt P01106, sequence (368-449, looked up): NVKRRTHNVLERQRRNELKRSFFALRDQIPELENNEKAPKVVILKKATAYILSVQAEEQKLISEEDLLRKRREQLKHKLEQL
Technique: protein-binding microarray
Molecule type: double-stranded DNA, one strand shown
Medium: in vitro
Tested at: not given
Notes: k-mer, scored over probes, only values ≥0.25
Reading: higher = stronger binding
Endpoint: E-score
CTCGTGCA: 0.367
CCACCCAC: 0.347
CGCACGAG: 0.444
AATGCACG: 0.332
GACGCCAC: 0.335
CACGTGGC: 0.495
CCGCGCGC: 0.35
ATGCACGG: 0.293
CATAGCAC: 0.257
ATGGGGGC: 0.265
CGTGATAA: 0.287
AGCCACGA: 0.391
CTCGTGGA: 0.438
CATCACAC: 0.258
CGTGGATA: 0.36
